# Assay results pooled from the literature.
# Parts stem from different laboratories: compare values within a part only.

# Sample 1
# Target: Histone acetyltransferase KAT6A, winged helix 2, GST fusion (KAT6A, Homo sapiens, UniProt Q92794, residues 85-181)
# Technique: protein binding microarray
# Form: double-stranded DNA, one strand shown
# Matrix: in vitro
# Concentration: not given
# Notes: 8-mer, flanks averaged, mean of 2 arrays, mostly near background
# Baseline: not given
# Reading: higher = stronger binding
# Residues (chain): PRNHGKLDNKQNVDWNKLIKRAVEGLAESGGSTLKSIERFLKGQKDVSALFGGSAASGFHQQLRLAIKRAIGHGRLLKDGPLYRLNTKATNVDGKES
Strand,E-score
CGGAAGCA,0.196
ATACACAG,-0.147
ATCCAGGG,0.0191
AACTCTTG,-0.0469
GCATAATA,0.0251
CCTTTCCA,-0.0159
CGTCCCAC,0.00549
ATACCGGC,0.0774
TAAGGAAA,-0.0723
TAACAATA,-0.115

# Sample 2
# Target: Sal-like protein 4, full length isoform A (SALL4, Homo sapiens, UniProt Q9UJQ4, residues 1-1053)
# Chain of UniProt Q9UJQ4 (whole entry, looked up): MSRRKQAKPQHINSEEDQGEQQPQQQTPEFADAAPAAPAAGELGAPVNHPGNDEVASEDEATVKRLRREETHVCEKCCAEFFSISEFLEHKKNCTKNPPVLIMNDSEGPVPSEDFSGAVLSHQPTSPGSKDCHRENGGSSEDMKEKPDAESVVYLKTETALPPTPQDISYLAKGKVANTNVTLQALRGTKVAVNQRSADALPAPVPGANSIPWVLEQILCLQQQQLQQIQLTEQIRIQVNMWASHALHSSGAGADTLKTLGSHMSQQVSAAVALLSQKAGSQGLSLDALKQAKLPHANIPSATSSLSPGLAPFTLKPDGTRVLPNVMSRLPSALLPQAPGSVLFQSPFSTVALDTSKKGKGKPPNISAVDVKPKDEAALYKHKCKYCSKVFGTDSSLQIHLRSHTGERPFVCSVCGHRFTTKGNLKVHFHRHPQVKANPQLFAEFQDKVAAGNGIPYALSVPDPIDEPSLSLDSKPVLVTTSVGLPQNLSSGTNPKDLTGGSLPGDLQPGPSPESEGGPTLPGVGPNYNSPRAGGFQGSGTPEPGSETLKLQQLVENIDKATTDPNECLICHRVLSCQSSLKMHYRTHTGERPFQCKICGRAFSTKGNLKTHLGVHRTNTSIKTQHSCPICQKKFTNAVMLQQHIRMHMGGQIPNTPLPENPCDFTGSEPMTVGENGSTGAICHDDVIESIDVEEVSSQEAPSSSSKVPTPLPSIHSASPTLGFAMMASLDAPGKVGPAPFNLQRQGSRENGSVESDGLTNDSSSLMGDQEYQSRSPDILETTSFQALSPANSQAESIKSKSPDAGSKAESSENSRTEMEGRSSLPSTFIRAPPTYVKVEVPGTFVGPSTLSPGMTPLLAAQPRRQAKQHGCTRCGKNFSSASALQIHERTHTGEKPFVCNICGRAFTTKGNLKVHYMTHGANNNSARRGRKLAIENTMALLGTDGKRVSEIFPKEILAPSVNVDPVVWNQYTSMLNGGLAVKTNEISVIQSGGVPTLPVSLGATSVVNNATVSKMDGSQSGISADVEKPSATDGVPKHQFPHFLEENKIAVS
# Technique: universal PBM
# Form: double-stranded DNA, one strand shown
# Matrix: in vitro
# Concentration: 600 nM
# Notes: 8-mer, flanks averaged, mean of replicates
# Reading: higher = stronger binding
Strand,E-score
AAGCGGTC,-0.248
GTGTTGAA,0.023
CGCGCCTA,-0.114
CAGGCATA,-0.00999
AAATGGCT,0.0199
GCCATCCC,-0.279
ACCCATTG,-0.032
ACGGGTTG,-0.182
ACAGAGAA,0.0319
CTTCGCTC,-0.278
CTAGCAAC,0.0227
TATCTCCA,0.109
CACCTCAC,-0.0609
TCCCAAAA,0.117
CAGGAGTC,-0.137

# Sample 3
# Target: Interferon regulatory factor 5, full length, phosphomimetic (IRF5, Homo sapiens, UniProt Q13568-2, residues 1-514, K96S/S451D/S453D/S456D/S462D)
# Technique: protein-binding microarray
# Form: double-stranded DNA, one strand shown
# Matrix: in vitro
# Concentration: 250 nM
# Notes: 60-bp whole probe
# Added: salmon DNA 0.4 mg/ml
# Baseline: random background probes
# Reading: higher = stronger binding
# Shared flanks, not repeated: GCCTAGCAC … GTGCTAGGTCTTGATTCGCTTGACGCTGCTG
Strand,log fluorescence [z-score]
AGCAGGGGCGCAGGTAGGTG,-0.685
TCACTTCTCTTTTTGCTACT,1.65
TTCGGACTGGGTATCGGTTA,4.62
TCACTTCTGCCTGTCCAACT,0.431
TCAGTCTTCCCTTTTAAACT,0.54
TCATGTTTGGTCCTGAAACT,0.297
TCACCTTTACATTCCCCACT,0.666

# Single results of other studies
Molecule,target,assay,test system,conditions,how to read,quantity,result
"PhoQ, residues 284 288 289 292 302 303 TLASMF","PhoP, residues 12 14 15 18 19 LHATL (Escherichia coli, UniProt P23836)","Sort-seq, measured: YFP reporter",E. coli,"PhoQ-PhoP variant library, added: 10 µM Mg2+","baseline: high Mg2+ state, higher = stronger signaling",fold induction,0.951

# Excerpt of the above (sample 2):
Strand,E-score
GCCATCCC,-0.279
ACCCATTG,-0.032
ACGGGTTG,-0.182
